Measured values collected from several papers.
A part holds a random share of what one study measured.

Block 1
Target: Histone acetyltransferase KAT6A, both winged helices, GST fusion (KAT6A, Homo sapiens, UniProt Q92794, residues 1-181)
Technique: protein binding microarray
Form: double-stranded DNA, one strand shown
Sample: in vitro
Tested at: not given
Setting: 8-mer, flanks averaged, mean of 2 arrays, mostly near background
Relative to: not given
Direction: higher = stronger binding
Target sequence (chain): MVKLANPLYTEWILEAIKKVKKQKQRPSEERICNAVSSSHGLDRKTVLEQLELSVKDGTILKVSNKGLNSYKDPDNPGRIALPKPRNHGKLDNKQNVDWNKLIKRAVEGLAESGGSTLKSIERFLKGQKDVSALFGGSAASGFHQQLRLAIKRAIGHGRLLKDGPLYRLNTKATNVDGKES
With `AAACCGAC` the E-score was 0.118.
The E-score of `GGGATGGA` is reported as -0.146.
The E-score of `GACTTCTA` is reported as -0.00842.
For `GAAGTCTA`, the E-score was -0.247.
With `AACAAGTC` the E-score was -0.0987.
For `CGGTTCCA`, the E-score was 0.111.
`CAACAGTG` gave an E-score of -0.0492.
`ACCAAACA` gave an E-score of 0.0563.
With `CGGGAACA` the E-score was 0.242.
`CAAACACC` gave an E-score of 0.0406.
For `CCCCCTCA`, the E-score was -0.23.
`CCACCTGG` has an E-score of -0.293.
With `ACCGGGGG` the E-score was 0.112.
`AAGCGCAA` has an E-score of 0.207.
With `CGTGGCTC` the E-score was 0.0991.
The E-score of `CACCGGGC` is reported as 0.141.
`GGCTAGAC` gave an E-score of -0.031.
`ATATATGG` gave an E-score of -0.0611.
With `AGTTCTCG` the E-score was -0.0962.
With `AACGATTA` the E-score was -0.0191.
`CCAAAAGG` gave an E-score of -0.127.
For `AGGTCTTG`, the E-score was -0.137.
With `CACACGTA` the E-score was -0.166.
The E-score of `AATCTGAA` is reported as -0.0468.
`ACAGGGAG` gave an E-score of -0.0814.

Block 2
Target: Transcription factor Sp1 (SP1, Homo sapiens, UniProt P08047, residues 1-785, full length assumed)
Sequence of UniProt P08047 (whole entry, looked up): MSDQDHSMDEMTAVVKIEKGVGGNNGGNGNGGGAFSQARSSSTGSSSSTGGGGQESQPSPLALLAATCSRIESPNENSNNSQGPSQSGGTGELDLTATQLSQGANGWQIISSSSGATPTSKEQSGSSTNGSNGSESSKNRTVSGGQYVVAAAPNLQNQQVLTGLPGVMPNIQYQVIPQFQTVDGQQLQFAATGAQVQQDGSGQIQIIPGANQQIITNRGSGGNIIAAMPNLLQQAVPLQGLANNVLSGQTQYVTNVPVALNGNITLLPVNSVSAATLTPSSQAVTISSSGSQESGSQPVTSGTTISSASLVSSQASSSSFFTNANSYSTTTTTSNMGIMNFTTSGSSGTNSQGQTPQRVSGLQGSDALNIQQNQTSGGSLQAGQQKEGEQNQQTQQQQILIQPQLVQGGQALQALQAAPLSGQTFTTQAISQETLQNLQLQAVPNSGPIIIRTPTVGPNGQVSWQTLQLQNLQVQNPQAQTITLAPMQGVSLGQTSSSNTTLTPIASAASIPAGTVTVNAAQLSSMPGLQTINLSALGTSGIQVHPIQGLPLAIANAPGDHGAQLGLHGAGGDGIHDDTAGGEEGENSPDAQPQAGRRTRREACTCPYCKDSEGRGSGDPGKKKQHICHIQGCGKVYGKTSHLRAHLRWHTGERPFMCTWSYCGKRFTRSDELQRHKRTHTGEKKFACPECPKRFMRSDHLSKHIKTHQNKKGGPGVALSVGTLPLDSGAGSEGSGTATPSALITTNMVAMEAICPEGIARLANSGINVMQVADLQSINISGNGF
Technique: protein-binding microarray
Form: double-stranded DNA, one strand shown
Sample: in vitro
Tested at: not given
Setting: k-mer, scored over probes, only values ≥0.25
Direction: higher = stronger binding
The E-score of `AACCCCTT` is reported as 0.308.
With `ATGATACG` the E-score was 0.27.
`ATTGTACC` gave an E-score of 0.26.
With `GGAGGGGA` the E-score was 0.474.
`CCCGACCC` gave an E-score of 0.287.
For `CCCTCCCA`, the E-score was 0.477.
`AAAGGGGC` has an E-score of 0.306.
For `GTTATACA`, the E-score was 0.26.
The E-score of `ATAAGTAC` is reported as 0.257.
`CCCCTGTA` gave an E-score of 0.269.

Block 3
Target: Eukaryotic initiation factor 4A-I (EIF4A1, Homo sapiens, UniProt P60842, residues 1-406, full length assumed)
Sequence of UniProt P60842 (whole entry, looked up): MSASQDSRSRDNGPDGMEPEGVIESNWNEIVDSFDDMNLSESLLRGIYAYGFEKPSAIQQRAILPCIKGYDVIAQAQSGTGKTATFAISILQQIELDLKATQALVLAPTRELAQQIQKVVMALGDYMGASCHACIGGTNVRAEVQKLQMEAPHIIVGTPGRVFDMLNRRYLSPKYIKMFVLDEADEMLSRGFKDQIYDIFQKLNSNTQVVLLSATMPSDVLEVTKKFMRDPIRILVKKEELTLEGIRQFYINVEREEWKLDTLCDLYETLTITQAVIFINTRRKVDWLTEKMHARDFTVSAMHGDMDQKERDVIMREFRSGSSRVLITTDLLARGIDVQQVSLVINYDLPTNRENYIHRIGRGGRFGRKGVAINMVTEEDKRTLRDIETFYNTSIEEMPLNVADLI
Technique: RNA Bind-n-Seq
Form: RNA
Sample: in vitro
Tested at: not given
Setting: 4-mer, random 30-nt RNA, single round
Together with: RocA, ADP, phosphate
Relative to: input library
Direction: higher = stronger binding
For `UACU`, the 4-mer enrichment was 0.618 fold.
For `GGGA`, the 4-mer enrichment was 1.89 fold.
The 4-mer enrichment of `AUUU` is reported as 0.94 fold.
The 4-mer enrichment of `UUGC` is reported as 0.688 fold.
With `CGCC` the 4-mer enrichment was 0.598 fold.
`GCGG` has a 4-mer enrichment of 0.986 fold.
`AGCG` has a 4-mer enrichment of 1.28 fold.
With `ACUU` the 4-mer enrichment was 0.607 fold.
`ACCG` gave a 4-mer enrichment of 0.688 fold.
With `GCGA` the 4-mer enrichment was 1.16 fold.
The 4-mer enrichment of `CAGC` is reported as 0.66 fold.
With `ACAG` the 4-mer enrichment was 0.89 fold.
The 4-mer enrichment of `AGGU` is reported as 1.19 fold.
With `UUAC` the 4-mer enrichment was 0.67 fold.

Block 4
Target: RING finger protein unkempt homolog, zinc fingers 1-6, GST-SBP tag (UNK, Homo sapiens, UniProt Q9C0B0, residues 30-357)
Sequence of UniProt Q9C0B0 (30-357, looked up): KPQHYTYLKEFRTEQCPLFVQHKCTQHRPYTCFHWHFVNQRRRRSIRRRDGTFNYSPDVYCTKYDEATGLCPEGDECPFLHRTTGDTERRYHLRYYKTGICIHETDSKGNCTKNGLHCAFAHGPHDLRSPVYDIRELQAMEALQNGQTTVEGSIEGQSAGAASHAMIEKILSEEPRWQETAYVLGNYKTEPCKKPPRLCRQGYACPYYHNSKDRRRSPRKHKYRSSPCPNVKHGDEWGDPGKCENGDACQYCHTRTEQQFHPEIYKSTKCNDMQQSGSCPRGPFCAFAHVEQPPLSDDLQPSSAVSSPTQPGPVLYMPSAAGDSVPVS
Technique: RNA Bind-n-Seq
Form: RNA
Sample: in vitro
Tested at: not given
Setting: RNA with constant flanks, human-mouse chimeric sites, ends assumed
Relative to: input RNA pool
Direction: higher = stronger binding
Shared flanks, not repeated: GGGAGUUCUACAGUCCGACGAUC … CAACAGAGGAUUGAGCAUCA
With `GACUUUGGGACUGGUCCUCGCAACGCAGCCUUCUAUAGCCCUCAUGGACAUAUAUUAGUAUUAGCUGGAUUUGGAAAUCUUCGAGGACAAAUGGAAGUAUGGGAUGUGAAAAACUACAAG` the bound/input enrichment was 0.651 ratio.
With `GCACUUGGGAAUGUAAUCAGCGCCUUGGGGGACAAGAGCAAGAGAGCCACCCAUGUCCCUUACAGAGACUCUAAGCUGACAAGACUCCUACAGGAUUCCCUUGGGGGUAACAGCCAAACC` the bound/input enrichment was 0.135 ratio.
The bound/input enrichment of `CAGCUGCAGACAGAAAAGGAUGAGAAGGAACUUUAUAAGGUACAUUUGAAGAAUACAGAAAUAGAAAAUACGAAGCUUGUGUCAGAGAUACAGACUUUAAAAAAUUUAGAUGGAAACAAA` is reported as 5.17 ratio.
For `AGAGCCCAGGAUGUUGAUGCUACAAAUCCAAAUUAUGAAAUUAUGUGUAUGAUCAGAGACUUCAGAGGGAGCUUGGAUUACAGACCCUUAACAACAGCAGAUCCUAUUGAUGAACAUAGG`, the bound/input enrichment was 0.481 ratio.
With `GCUCUUGGGAAUGUAAUCAGCGCCUUGGGGGACAAGAGCAAGAGGGCCACCCAUGUCCCUUACAGAGAUUCCAAGCUGACAAGACUCUUGCAGGAUUCCCUUGGGGGUAACAGCCAAACC` the bound/input enrichment was 0.122 ratio.
The bound/input enrichment of `CUGAGGAUACCACUGAAGAGACCUUAAAAGAAUCAUUUUGACGGCUCGUUCGUGCAAGAAUAGUCACCUGACCGGGAACUGGUUCUUCCAAAGGGUUUGGUUUUGUAGACUUUAAUAGUG` is reported as 0.645 ratio.
`UUGAAAACUGAUUCAAGUAAGUUUGAGUAUCACAAUGUUAGCUUUCUAAUUCCAUAAAAGUACUUGGUUUUUACAGUUUAUAAUCUGCAAUCCAUCACCGUUUAUAAGUAAAGAGCAACU` has a bound/input enrichment of 0.371 ratio.
`GUAGCUGGCCAUUAGGAAAUGCUGGUAAUUUCAGUCACUUGCUGAUGACUUCUGAUGUCCCAGCAAAUGUUGGCAUUGUUGACUGCUGAGAAGAUACACUCGCAAGGCCACGUCUAAGGU` has a bound/input enrichment of 0.247 ratio.
`AGAUUCCCCCUCCUGAGACCUCCUCCGAAGUUGGAGUCUCUUACAGAUGCCUCAUCCCCUGUUAGCGUUUUGGUCUGGACCACCCAGCCUUGGACGAUUCCCGCCAACCAGGCAAUUUGC` gave a bound/input enrichment of 0.372 ratio.
With `CACAGAGGAGACCUCCUGUUCCUCACGAAUUUCCGGGAGGACCCCAUCAGAGCUGGUGAAAUAGUUGUUUUUAAGGUUGAAGGAAGAGACAUUCCGAUAGUUCACAGAGUAAUCAAGGUU` the bound/input enrichment was 5.95 ratio.
The bound/input enrichment of `CACACCCUCUUCUGCGGGACCCUCAUCUUGCAGGCCCGGGCCUAUGUGGGACCGCACGUCCUGGCAGUGGUGACCCGGACAGGGUUCUGCACGGCAAAAGGGGGCCUGGUGAGCUCCAUC` is reported as 0.111 ratio.

Block 5
Target: RNA binding protein fox-1 homolog 2, RRM domain, GST-SBP tag (RBFOX2, Homo sapiens, UniProt O43251-10, residues 100-194)
Technique: RNA Bind-n-Seq
Form: RNA
Sample: in vitro
Tested at: 365 nM
Setting: natural RNA segment, single round, ends assumed
Relative to: no-protein control
Direction: higher = stronger binding
Shared flanks, not repeated: GGGAGUUCUACAGUCCGACGAUC … UGGAAUUCUCGGGUGCCAA
Residues (chain): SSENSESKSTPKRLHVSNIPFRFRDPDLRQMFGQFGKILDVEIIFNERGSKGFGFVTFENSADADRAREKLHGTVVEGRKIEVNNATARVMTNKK
For `GUGUCUUGGUUUCACUGUUUUUGUUUUGAUUUUUUUUUUGUUUUGAUUUUUUUUAAACUAAAGCUAUAUAAAGCUUGUGGAUUAAACAGAAUAAAUUUCUAAAUUUAAAA`, “RBNS enrichment (R)” read 1.32.
For `UGGGCACCUGGCCUCCAGGAGUCGCUGUGUUGGGAGAGCCGGCCACGCCCUUGGCUUUAGAGCUGUGUUGAAAUCCAUUUUGGUGGUUGGUUUUUAACCCAAACUCAGUG`, “RBNS enrichment (R)” read 0.567.
`UAAAAAGUGUAUUUCUUUGCCAUUUGAUUUGGCUGAAGGACAGUCAGCAUCCUGUGUGAGAACACAUUUUGAAAGCCCAAUGACAUCAACUGGGUAAAGGAAACACUAAC`: “RBNS enrichment (R)” 0.659.
`UCAGAUGCAGUGAGGAGCACUGAGUCCUUUGCAAUGUUUUCAGCCAUAGACCUUUGGGUCUGCCUGGACUGUAUGUGGAUGUGUGCGUGUGUUGUGACACGGGACAACAC` — result for “RBNS enrichment (R)”: 0.675.
Under “RBNS enrichment (R)”, `UCCGCGCUGAAGAACUUACCGAAGCAUCAGGGGCAGAAGAGACCACAGACAUGGUGUCUGCAGUUUCCCAGCUGUCCGACUCCCCGGACACCACAGAGGAAGCCACCCCA` is recorded as 0.523.
For `CGAGUGGUUGGUCUGAAGUCCUUGCAAGACGCUGAUGCUCAAGCUGUUGACAUACUCAUUGCCUACUUUAACACCUGUCAGAGAAACGUGAUAUGGGGUAAGGAGGUGCU`, “RBNS enrichment (R)” read 0.756.
`AGCAGAAGGUCAGGAUAGCAUGAGAUAGUCUCAAUGUGGCCAACCAAAAGGACAAAACUGACAGGAAUGCACAUUCGAUUUUCAAGCCCUCCAGAGCUUGAACAACAACU`: “RBNS enrichment (R)” 3.76.
For `AUGCAUGCCCUUCAGGGGAAGACUGUGAGUCAAGUUUAAUAAAUAAAAACCUAAUACUAAGCAAUAUGAAGCUGCACUCUGCUUUUAAGUGAGGCCAAGCCAAGUAAGCC`, “RBNS enrichment (R)” read 11.1.
`CACCCCCCAGGGAGGACCCAGCCCUGGCUUUGGGGCUAUUCUGCAGGGUUGUCUAGAGGAGUGGGGAGAUGACUUUGGGGGUUCUCCUGAUUCAGUGCCAAUAGCCACAG`: “RBNS enrichment (R)” 0.583.
Under “RBNS enrichment (R)”, `ACCUCACAGCCACCCUGAGGCUCUCUGACCCUGGGAUGCUGAGGCCUUCUUAGCCUCUAGGUACAGUCUGUAGGAUGGAAAGCUUUUAGGAGUGGGCAGGGCCGAAUGGA` is recorded as 0.353.
`CACCUCUGCCUGGAAGAGCUUGGACCAGAAACGACCUCCUCCUCUCUGUGUGUUGGAGGGAGAGGAGCUGGGCACUGUUUUGAUGUGGAGGGGAUGUUGUUCUGAGUUGA` — result for “RBNS enrichment (R)”: 1.65.
`AAAAAACCUAUUUUAUGCUUUGUUAAAAUUAUGGUGUCACUUAGAUUGACUUUAGUUGACUGCACUAUAUAAUAUAGAACUAUGAAUAUGUAGAAUAACAUGAAAAAUUG` — result for “RBNS enrichment (R)”: 0.452.

Block 6
Target: Interferon regulatory factor 5, full length, phosphomimetic (IRF5, Homo sapiens, UniProt Q13568-2, residues 1-514, K96S/S451D/S453D/S456D/S462D)
Technique: protein-binding microarray
Form: double-stranded DNA, one strand shown
Sample: in vitro
Tested at: 250 nM
Setting: 60-bp whole probe
Together with: salmon DNA 0.4 mg/ml
Relative to: random background probes
Direction: higher = stronger binding
Shared flanks, not repeated: GCCTAGCAC … GTCTTGATTCGCTTGACGCTGCTG
With `TGGTATTTTTTTCTAATTGAGTGCTAG` the log fluorescence was 0.758 z-score.
With `GGCCTTGGAGGGGGTGGGTGGTGCTAG` the log fluorescence was 1.71 z-score.
With `GACGGACTGGACACTGGGTACGTGCTA` the log fluorescence was -0.668 z-score.
For `TCAGGTATCCTACTGCTTTAGTGCTAG`, the log fluorescence was -0.084 z-score.
With `TTAGGTTGCGGTCTCGGTTAGTGCTAG` the log fluorescence was 1.05 z-score.
`GACGGTATCGGACTGGGGGCGTGCTAG` has a log fluorescence of 1.62 z-score.
`TAGAGTAGCTTTCTGAGGGCGTGCTAG` gave a log fluorescence of 0.331 z-score.
`GACTGACTGGACTTTCGGGACGTGCTA` has a log fluorescence of 4.37 z-score.
For `TTAGGACTGGGTCTCGGTTTGTGCTAG`, the log fluorescence was -0.0343 z-score.
`TTAGGTTTCCTTTCCCGTTAGTGCTAG` has a log fluorescence of 1.27 z-score.
`GAGGGTATCGGGTATCGGGACGTGCTA` has a log fluorescence of 2.37 z-score.
With `GACGGTTCCTTTTTCCTGACGTGCTAG` the log fluorescence was 0.407 z-score.
`TTAGGTTTCGGACAGGGTTAGTGCTAG` gave a log fluorescence of 5.55 z-score.
With `GACGGTCTCCTACTGCTGAGGTGCTAG` the log fluorescence was -0.277 z-score.
The log fluorescence of `AACGGACTGGGGTATCGGGACGTGCTA` is reported as 0.104 z-score.
For `CTCATTCGTCATTTCACAGTGTGCTAG`, the log fluorescence was 0.745 z-score.
`TTAGATATCAGACCGGATTAGTGCTAG` gave a log fluorescence of 0.202 z-score.
For `TTAGGTTTCGGTATCTGTTAGTGCTAG`, the log fluorescence was 10.5 z-score.

Repeated from above (block 2):
The E-score of `AACCCCTT` is reported as 0.308.
With `ATGATACG` the E-score was 0.27.
`ATTGTACC` gave an E-score of 0.26.
With `GGAGGGGA` the E-score was 0.474.
`CCCGACCC` gave an E-score of 0.287.
For `CCCTCCCA`, the E-score was 0.477.
`AAAGGGGC` has an E-score of 0.306.
For `GTTATACA`, the E-score was 0.26.
The E-score of `ATAAGTAC` is reported as 0.257.
`CCCCTGTA` gave an E-score of 0.269.
